Published values of several laboratories.
Each numbered part is a random draw from the data of one study; scales do not carry over between parts. “And” joins repeats or separate records; there may be more than shown.
UniProt P34947, sequence (whole entry, looked up): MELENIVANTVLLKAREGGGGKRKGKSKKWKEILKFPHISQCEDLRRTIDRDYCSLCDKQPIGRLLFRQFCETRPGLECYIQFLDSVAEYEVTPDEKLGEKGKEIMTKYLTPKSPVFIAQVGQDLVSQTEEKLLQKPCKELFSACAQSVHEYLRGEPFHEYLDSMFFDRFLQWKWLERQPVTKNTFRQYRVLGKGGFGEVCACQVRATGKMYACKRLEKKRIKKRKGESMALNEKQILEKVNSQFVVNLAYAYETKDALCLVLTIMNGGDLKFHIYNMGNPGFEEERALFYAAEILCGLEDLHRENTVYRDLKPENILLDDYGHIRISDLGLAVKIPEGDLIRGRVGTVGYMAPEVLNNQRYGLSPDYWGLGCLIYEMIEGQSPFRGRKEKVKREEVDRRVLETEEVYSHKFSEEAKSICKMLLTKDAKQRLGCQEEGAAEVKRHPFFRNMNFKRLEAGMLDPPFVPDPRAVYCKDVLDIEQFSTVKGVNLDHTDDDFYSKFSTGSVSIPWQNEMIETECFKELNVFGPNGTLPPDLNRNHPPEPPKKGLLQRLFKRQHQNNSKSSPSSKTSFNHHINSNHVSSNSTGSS
UniProt Q96NX5, sequence (whole entry, looked up): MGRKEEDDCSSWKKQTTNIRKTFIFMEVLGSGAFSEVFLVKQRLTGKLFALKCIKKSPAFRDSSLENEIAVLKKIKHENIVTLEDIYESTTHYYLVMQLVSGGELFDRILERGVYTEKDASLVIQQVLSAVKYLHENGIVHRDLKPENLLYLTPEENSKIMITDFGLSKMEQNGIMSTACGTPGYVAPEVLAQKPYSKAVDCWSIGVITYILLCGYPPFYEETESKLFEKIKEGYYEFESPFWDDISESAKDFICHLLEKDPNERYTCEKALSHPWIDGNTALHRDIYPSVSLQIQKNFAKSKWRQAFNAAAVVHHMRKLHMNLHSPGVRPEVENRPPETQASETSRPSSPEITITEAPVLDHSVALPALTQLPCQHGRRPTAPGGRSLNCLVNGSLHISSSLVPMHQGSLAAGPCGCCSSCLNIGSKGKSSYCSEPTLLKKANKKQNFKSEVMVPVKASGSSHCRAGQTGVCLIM
UniProt P53779, sequence (whole entry, looked up): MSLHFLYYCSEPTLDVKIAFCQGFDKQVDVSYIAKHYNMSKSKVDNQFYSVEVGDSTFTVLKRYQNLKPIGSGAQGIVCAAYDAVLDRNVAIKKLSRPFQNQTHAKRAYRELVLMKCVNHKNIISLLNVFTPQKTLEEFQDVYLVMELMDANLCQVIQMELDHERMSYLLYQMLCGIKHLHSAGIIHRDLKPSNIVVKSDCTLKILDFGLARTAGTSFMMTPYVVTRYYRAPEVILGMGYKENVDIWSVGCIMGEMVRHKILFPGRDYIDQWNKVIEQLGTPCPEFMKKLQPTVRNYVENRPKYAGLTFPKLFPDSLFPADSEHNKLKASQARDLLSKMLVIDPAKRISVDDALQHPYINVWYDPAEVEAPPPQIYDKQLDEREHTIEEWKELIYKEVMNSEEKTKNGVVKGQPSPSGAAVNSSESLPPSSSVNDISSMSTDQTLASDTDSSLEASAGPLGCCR
UniProt P21802, sequence (whole entry, looked up): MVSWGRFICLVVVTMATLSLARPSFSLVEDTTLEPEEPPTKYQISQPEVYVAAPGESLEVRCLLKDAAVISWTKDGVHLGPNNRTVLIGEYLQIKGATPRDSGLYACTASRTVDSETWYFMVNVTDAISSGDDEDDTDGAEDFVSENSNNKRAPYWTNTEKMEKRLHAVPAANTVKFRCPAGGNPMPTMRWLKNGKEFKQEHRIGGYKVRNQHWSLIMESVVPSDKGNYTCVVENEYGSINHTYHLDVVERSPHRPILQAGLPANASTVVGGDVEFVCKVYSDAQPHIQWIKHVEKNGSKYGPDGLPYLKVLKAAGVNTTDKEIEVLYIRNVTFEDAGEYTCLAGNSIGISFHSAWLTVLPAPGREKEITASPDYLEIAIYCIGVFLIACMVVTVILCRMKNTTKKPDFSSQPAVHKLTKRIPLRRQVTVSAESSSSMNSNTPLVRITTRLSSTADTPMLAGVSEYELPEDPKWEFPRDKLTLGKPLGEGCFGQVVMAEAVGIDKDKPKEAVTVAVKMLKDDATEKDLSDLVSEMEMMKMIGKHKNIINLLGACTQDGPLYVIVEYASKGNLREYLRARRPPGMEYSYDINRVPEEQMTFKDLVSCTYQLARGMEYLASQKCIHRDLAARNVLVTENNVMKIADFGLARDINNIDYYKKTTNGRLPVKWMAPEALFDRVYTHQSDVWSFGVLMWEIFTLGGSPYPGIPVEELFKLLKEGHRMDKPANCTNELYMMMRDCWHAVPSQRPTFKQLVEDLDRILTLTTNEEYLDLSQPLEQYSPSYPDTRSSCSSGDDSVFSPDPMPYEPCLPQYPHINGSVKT
UniProt P41279, sequence (whole entry, looked up): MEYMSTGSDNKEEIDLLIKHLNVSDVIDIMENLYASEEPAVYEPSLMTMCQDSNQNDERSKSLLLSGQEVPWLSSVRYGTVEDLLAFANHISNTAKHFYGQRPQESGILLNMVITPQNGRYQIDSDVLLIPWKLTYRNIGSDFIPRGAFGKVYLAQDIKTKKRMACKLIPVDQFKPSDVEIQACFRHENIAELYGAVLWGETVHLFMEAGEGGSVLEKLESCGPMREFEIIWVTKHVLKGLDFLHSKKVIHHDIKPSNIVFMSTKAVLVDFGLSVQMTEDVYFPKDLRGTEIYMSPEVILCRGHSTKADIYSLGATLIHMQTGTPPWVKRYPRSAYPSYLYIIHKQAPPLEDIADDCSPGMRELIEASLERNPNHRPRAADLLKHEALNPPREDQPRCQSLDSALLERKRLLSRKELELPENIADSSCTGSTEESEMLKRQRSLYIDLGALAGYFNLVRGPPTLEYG
UniProt Q86Z02, sequence (whole entry, looked up): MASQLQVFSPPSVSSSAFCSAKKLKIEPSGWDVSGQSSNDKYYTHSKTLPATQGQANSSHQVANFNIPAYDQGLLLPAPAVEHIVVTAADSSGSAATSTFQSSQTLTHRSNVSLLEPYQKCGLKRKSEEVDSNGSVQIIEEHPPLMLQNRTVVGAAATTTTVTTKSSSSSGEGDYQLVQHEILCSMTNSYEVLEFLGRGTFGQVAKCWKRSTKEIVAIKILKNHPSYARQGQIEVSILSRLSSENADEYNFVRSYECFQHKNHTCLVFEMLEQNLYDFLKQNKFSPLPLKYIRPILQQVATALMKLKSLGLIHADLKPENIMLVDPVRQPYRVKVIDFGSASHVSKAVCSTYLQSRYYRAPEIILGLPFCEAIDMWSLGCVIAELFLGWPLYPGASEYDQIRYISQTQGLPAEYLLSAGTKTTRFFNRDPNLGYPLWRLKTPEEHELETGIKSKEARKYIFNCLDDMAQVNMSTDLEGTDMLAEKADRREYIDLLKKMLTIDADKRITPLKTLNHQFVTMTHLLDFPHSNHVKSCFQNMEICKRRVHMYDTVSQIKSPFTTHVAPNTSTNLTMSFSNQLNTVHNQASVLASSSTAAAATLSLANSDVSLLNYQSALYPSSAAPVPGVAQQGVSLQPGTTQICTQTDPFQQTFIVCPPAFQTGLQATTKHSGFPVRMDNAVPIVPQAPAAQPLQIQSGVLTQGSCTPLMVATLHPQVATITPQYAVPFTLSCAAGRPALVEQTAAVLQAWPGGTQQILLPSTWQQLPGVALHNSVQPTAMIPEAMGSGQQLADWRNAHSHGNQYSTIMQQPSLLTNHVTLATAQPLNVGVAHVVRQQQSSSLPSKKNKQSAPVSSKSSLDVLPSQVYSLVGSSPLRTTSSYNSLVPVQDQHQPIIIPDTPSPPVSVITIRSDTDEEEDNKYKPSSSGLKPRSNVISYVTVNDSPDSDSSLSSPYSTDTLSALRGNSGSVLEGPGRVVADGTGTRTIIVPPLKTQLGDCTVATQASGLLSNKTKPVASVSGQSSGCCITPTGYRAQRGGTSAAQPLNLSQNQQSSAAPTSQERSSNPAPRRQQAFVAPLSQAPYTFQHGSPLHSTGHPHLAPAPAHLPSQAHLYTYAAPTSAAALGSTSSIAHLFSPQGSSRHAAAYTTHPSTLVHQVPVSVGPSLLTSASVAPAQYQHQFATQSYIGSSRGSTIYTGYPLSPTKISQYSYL
UniProt P19784, sequence (whole entry, looked up): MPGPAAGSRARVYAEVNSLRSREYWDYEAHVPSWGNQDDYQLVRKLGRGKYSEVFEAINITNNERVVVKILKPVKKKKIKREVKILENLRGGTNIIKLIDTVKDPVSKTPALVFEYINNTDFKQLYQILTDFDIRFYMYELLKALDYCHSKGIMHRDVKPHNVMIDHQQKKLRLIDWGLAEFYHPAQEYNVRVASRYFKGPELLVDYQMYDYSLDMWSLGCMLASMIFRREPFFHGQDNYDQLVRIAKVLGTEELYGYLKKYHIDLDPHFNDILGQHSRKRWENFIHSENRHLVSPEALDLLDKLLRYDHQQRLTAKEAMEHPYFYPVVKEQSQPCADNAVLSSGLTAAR
UniProt O14965, sequence (whole entry, looked up): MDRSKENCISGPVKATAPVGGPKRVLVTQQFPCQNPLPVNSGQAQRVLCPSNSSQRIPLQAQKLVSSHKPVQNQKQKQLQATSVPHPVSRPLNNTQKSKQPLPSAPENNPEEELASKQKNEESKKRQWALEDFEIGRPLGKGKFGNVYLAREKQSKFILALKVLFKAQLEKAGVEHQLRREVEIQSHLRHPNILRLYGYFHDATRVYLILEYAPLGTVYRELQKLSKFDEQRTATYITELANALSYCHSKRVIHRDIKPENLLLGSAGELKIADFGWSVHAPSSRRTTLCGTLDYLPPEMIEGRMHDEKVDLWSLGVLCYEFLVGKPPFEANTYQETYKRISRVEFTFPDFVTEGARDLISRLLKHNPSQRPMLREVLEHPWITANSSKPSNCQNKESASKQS

Series 1
Organism: Sarcocystis neurona
Read-out: parasite growth
Concentration: 10 µM
Baseline: untreated
SMILES | log2 fold change
CN(CCO)CC(O)Cn1cnc2c1c(=O)n(C)c(=O)n2C.O=C(O)c1cccnc1 (stereo not drawn) | 0.25
O=c1[nH]c(=O)n([C@H]2C[C@H](O)[C@@H](CO)O2)cc1F | -0.96
CCN(CC)CCNC(=O)c1cc(Cl)c(N)cc1OC.Cl | 0.26
CCCc1nc(C)c2c(=O)[nH]c(-c3cc(S(=O)(=O)N4CCN(CC)CC4)ccc3OCC)nn12.O=C(O)CC(O)(CC(=O)O)C(=O)O | 0.36
CC(C)[N+]1(C)[C@@H]2CC[C@H]1CC(OC(=O)C(CO)c1ccccc1)C2.[Br-] (stereo partly drawn) | 0.3
CC(C)NCC(O)COc1cccc2ccccc12.Cl (stereo not drawn) | 0.3
CC1=C(C/C=C(\C)CCC[C@H](C)CCC[C@H](C)CCCC(C)C)C(=O)c2ccccc2C1=O | 0.31
Cc1onc(-c2ccccc2)c1C(=O)N[C@@H]1C(=O)N2[C@@H]1SC(C)(C)[C@@H]2C(=O)O | 0.3
C[C@]12CC[C@@H]3c4ccc(O)cc4CC[C@H]3[C@@H]1CC[C@@H]2O | 0.5

Series 2
SMILES: CC(=O)N1CCC(c2ccc(C(=O)NC(=N)N)cc2C(F)(F)F)CC1
Read-out: cell-free assay
Method: competition with immobilised ligand
Concentration: 1 µM
target | remaining binding [%]
Citron Rho-interacting kinase (CIT, Homo sapiens, UniProt O14578) | 98
Ephrin type-B receptor 1 (EPHB1, Homo sapiens, UniProt P54762) | 100
RAC-alpha serine/threonine-protein kinase (AKT1, Homo sapiens, UniProt P31749) | 100
Myosin light chain kinase, smooth muscle (MYLK, Homo sapiens, UniProt Q15746) | 90
Dual specificity protein kinase CLK4 (CLK4, Homo sapiens, UniProt Q9HAZ1) | 100
Fibroblast growth factor receptor 2 (FGFR2, Homo sapiens, UniProt P21802) | 100
Homeodomain-interacting protein kinase 1 (HIPK1, Homo sapiens, UniProt Q86Z02) | 81
BDNF/NT-3 growth factors receptor (NTRK2, Homo sapiens, UniProt Q16620) | 100

Series 3
SMILES: C[S+]([O-])c1ccc(-c2nc(-c3ccncc3)c(-c3ccc(F)cc3)[nH]2)cc1 (stereo not drawn)
Read-out: enzyme activity
Action: inhibitor
Concentration: 0.5 µM
Baseline: control
target | remaining activity [%]
G protein-coupled receptor kinase 5 (GRK5, Homo sapiens, UniProt P34947) | 104
Serine/threonine-protein kinase Nek9 (NEK9, Homo sapiens, UniProt Q8TD19) | 99.1
Dual specificity tyrosine-phosphorylation-regulated kinase 4 (DYRK4, Homo sapiens, UniProt Q9NR20) | 99.2
Casein kinase II subunit alpha' (CSNK2A2, Homo sapiens, UniProt P19784) | 104
Rho-associated protein kinase 2 (ROCK2, Homo sapiens, UniProt O75116) | 98.4
Homeodomain-interacting protein kinase 3 (HIPK3, Homo sapiens, UniProt Q9H422) | 103
Mitogen-activated protein kinase kinase kinase 2 (MAP3K2, Homo sapiens, UniProt Q9Y2U5) | 95.3
Cyclin-dependent kinase 2, with cyclin A (CDK2, Homo sapiens, UniProt P24941) | 101
Protein-tyrosine kinase 2-beta (PTK2B, Homo sapiens, UniProt Q14289) | 92.5
Calcium/calmodulin-dependent protein kinase type 1G (CAMK1G, Homo sapiens, UniProt Q96NX5) | 99.3
Myotonin-protein kinase (DMPK, Homo sapiens, UniProt Q09013) | 103
Aurora kinase A (AURKA, Homo sapiens, UniProt O14965) | 99.5
Serine/threonine-protein kinase BRSK1 (BRSK1, Homo sapiens, UniProt Q8TDC3) | 97.9
Cyclin-dependent kinase 7 (CDK7, Homo sapiens, UniProt P50613) | 96.8
STE20-like serine/threonine-protein kinase (SLK, Homo sapiens, UniProt Q9H2G2) | 94.1
Proto-oncogene tyrosine-protein kinase receptor Ret (RET, Homo sapiens, UniProt P07949) | 85.1
Mitogen-activated protein kinase kinase kinase 8 (MAP3K8, Homo sapiens, UniProt P41279) | 92.1
NT-3 growth factor receptor (NTRK3, Homo sapiens, UniProt Q16288) | 98
Mitogen-activated protein kinase 10 (MAPK10, Homo sapiens, UniProt P53779) | 114

Series 4
Cell line: mouse MPNST tumor cells
Method: high-content nuclear imaging
Item: cell number
Concentration: 10 µM
Time: 12 h
Setting: mean of 2 replicates
Baseline: plate mean
Direction: higher = more cells
SMILES | nuclei count
N[C@@H](Cc1cc(I)c(Oc2ccc(O)c(I)c2)c(I)c1)C(=O)O | 0.205 z-score and 2.16 z-score
Cc1cccc(C)c1OCC(C)N (stereo not drawn) | 3.22 z-score and 3.29 z-score
CN1CCCN=C1COC(=O)C(O)(c1ccccc1)C1CCCCC1 (stereo not drawn) | 0.553 z-score
Cc1nc(Nc2cnn(C3CCNCC3)c2)nc2c1N(C)C(=O)c1cc3ccccc3cc1N2C | -3.38 z-score
O=S(=O)(c1ccccc1)N(CC(F)(F)F)c1ccc(C(O)(C(F)(F)F)C(F)(F)F)cc1 | 2.89 z-score
COC(=O)c1cnn(-c2ccc(F)cc2F)c1C=NNC(=S)NC(C)(C)C | 0.0336 z-score
COc1cccc(OC)c1-c1cc(C(=O)NC(CC(C)C)C(=O)O)nn1-c1ccnc2cc(Cl)ccc12 (stereo not drawn) | 1.73 z-score
C=C1C(=O)O[C@H]2[C@H]1CC/C(C)=C/CC[C@@]1(C)O[C@@H]21 | -3.23 z-score

Single results of other studies
Compound | host | dose | time | endpoint | value
CN1CC[C@H](c2c(O)cc(O)c3c(=O)cc(-c4ccccc4Cl)oc23)[C@H](O)C1 | nude mouse, HH xenograft | dose not given | day 14 | tumour volume | 46.8 mm³ and 49.4 mm³ and 225 mm³ and 74.4 mm³ and 127 mm³ and 134 mm³ and 128 mm³ and 100 mm³

Excerpt of the above (series 4):
SMILES | nuclei count
Cc1cccc(C)c1OCC(C)N (stereo not drawn) | 3.22 z-score and 3.29 z-score
CN1CCCN=C1COC(=O)C(O)(c1ccccc1)C1CCCCC1 (stereo not drawn) | 0.553 z-score
Cc1nc(Nc2cnn(C3CCNCC3)c2)nc2c1N(C)C(=O)c1cc3ccccc3cc1N2C | -3.38 z-score
